Experimental data of several laboratories.
Parts stem from different laboratories: compare values within a part only.

Block 1
Target: RING finger protein unkempt homolog, zinc fingers 1-6, GST-SBP tag (UNK, Homo sapiens, UniProt Q9C0B0, residues 30-357)
Chain of UniProt Q9C0B0 (30-357, looked up): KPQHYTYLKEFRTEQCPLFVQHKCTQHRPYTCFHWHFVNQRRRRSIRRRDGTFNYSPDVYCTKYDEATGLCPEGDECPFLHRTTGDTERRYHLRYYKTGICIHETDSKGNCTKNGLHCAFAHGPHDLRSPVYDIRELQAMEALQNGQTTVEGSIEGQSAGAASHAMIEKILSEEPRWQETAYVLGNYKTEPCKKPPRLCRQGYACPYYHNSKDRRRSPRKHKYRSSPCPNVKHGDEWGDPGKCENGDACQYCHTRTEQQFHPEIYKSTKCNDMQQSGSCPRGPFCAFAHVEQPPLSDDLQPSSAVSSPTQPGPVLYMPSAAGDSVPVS
Method: RNA Bind-n-Seq
Form: RNA
Matrix: in vitro
Concentration: not given
Notes: RNA with constant flanks, human and mouse sites, ends assumed
Baseline: input RNA pool
Reading: higher = stronger binding
Strand | bound/input enrichment
GGGAGUUCUACAGUCCGACGAUCACCUCCCCCUCCCGCCUCACCCCACCCCCGCUUUUUGGAAAGUUUUUGGCGUUUCUUUUCCUUCCCCAUACAAAGUGAUUACAGUUUCCCCCGCAAGGGUCUAUCGAAGGGCUUGACGGACAACAGAGGAUUGAGCAUCA | 1.32 ratio
GGGAGUUCUACAGUCCGACGAUCAAAACCUGGUAUGGAGUCCCAGGGUAUGCUGCUGAGCAGCUAGAAAAUGUAAUGAAGAAACUAGCUCCAGAACUCUUUGUGUCCCAGCCGGAUCUCCUCCAUCAGCUUGUGACCAUCAUGCAACAGAGGAUUGAGCAUCA | 0.392 ratio
GGGAGUUCUACAGUCCGACGAUCGUUUUUGACAAUUUUUUUAUCAAGAAAGAGCAAAUAAAAAGCAGUGGUAAUGAUCCAAAGUAUAGUACAACCACAGCUCAGAAUUCCAGCAGUUCAUCCAGUCAGAGCAAAAUGGUUAAUCAACAGAGGAUUGAGCAUCA | 0.368 ratio
GGGAGUUCUACAGUCCGACGAUCGUACUGCAGCAGCAGGGAAAACUGCAGGAAGCUCUGAUGCAUUAUAAGGAGGCUAUUCGAAUCAGUCCUACCUUUGCUGAUGCCUACUCUAAUAUGGGAAACACUCUAAAGGAGAUGCAGCAACAGAGGAUUGAGCAUCA | 0.183 ratio

Block 2
Target: Histone acetyltransferase KAT6A, both winged helices, GST fusion (KAT6A, Homo sapiens, UniProt Q92794, residues 1-181)
Method: protein binding microarray
Form: double-stranded DNA, one strand shown
Matrix: in vitro
Concentration: not given
Notes: 8-mer, flanks averaged, mean of 2 arrays, mostly near background
Baseline: not given
Reading: higher = stronger binding
Target sequence (chain): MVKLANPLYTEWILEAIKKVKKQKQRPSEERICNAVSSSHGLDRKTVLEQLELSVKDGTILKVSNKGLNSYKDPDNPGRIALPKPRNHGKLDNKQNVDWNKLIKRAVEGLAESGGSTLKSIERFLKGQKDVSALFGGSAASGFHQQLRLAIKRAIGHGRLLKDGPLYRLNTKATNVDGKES
Strand | E-score
CTTATCTC | -0.129
AATTTAAC | -0.0193
GCGTCTCA | 0.183
CCCACGTC | -0.0697
CTAGGCAG | -0.189
CATTTTTC | -0.0882

Block 3
Target: RNA binding protein fox-1 homolog 2, RRM domain, GST-SBP tag (RBFOX2, Homo sapiens, UniProt O43251-10, residues 100-194)
Method: RNA Bind-n-Seq
Form: RNA
Matrix: in vitro
Concentration: 365 nM
Notes: natural RNA segment, single round, ends assumed
Baseline: no-protein control
Reading: higher = stronger binding
Residues (chain): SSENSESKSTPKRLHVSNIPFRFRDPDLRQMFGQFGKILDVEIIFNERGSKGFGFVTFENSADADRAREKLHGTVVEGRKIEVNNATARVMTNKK
Strand | RBNS enrichment (R)
GGGAGUUCUACAGUCCGACGAUCUGGCCUAUUUCCAGUUUUAUGUGAGUCAUGUAAAAAAGCCUUGGCUCUCUACCUAUUAAGAAUGUCUCUUUCUCUGUAUUUAUUAAGCUUCAAACUUUAUUGCUUCGAUUUGGAAUUCUCGGGUGCCAA | 0.628
GGGAGUUCUACAGUCCGACGAUCUUGUAAUUUGGGGAUCUUGAUUUCACCGUUGUUGGUGAAGGAAAUUUUCAAUAAAUAUGCAUAACCUACAAAGCUGGCAUGUGUCGUGCCCCAGCCCCCUGCACCUUCCCUGGAAUUCUCGGGUGCCAA | 1.09
GGGAGUUCUACAGUCCGACGAUCAAUGUCACAUGACAGAUGCCAUGAAGAAGUCAACCGAUAUAGCUUGGAUCUGUGAACCCUGUACUGCGAGAAUCACAUAGUUCCAUAUAAGUUGUCCUUAGUCUCUUGUGUGGAAUUCUCGGGUGCCAA | 0.314
GGGAGUUCUACAGUCCGACGAUCGUAGUGCCCUUCCUUCAUCAGGCCAAAGCACCAAGUUGCUUCACUGCCUCGGCCUUUUGUCCAGCUCAGCCUGGGAUGUCUAUAGGGUUGAGGGUUUUAGACAAUCUCUAUGGAAUUCUCGGGUGCCAA | 0.213

Mixed results
Molecule | target | assay | system | setting | how to read | endpoint | result
PhoQ, residues 284 288 289 292 302 303 SASVAL | PhoP, residues 12 14 15 18 19 LHSVQ (Escherichia coli, UniProt P23836) | Sort-seq, measured: YFP reporter | E. coli | PhoQ-PhoP variant library, together with: 10 µM Mg2+ | baseline: high Mg2+ state, higher = stronger signaling | fold induction | 0.702

Excerpt of the above (block 1):
Strand | bound/input enrichment
GGGAGUUCUACAGUCCGACGAUCAAAACCUGGUAUGGAGUCCCAGGGUAUGCUGCUGAGCAGCUAGAAAAUGUAAUGAAGAAACUAGCUCCAGAACUCUUUGUGUCCCAGCCGGAUCUCCUCCAUCAGCUUGUGACCAUCAUGCAACAGAGGAUUGAGCAUCA | 0.392 ratio
GGGAGUUCUACAGUCCGACGAUCGUUUUUGACAAUUUUUUUAUCAAGAAAGAGCAAAUAAAAAGCAGUGGUAAUGAUCCAAAGUAUAGUACAACCACAGCUCAGAAUUCCAGCAGUUCAUCCAGUCAGAGCAAAAUGGUUAAUCAACAGAGGAUUGAGCAUCA | 0.368 ratio
